Measurements collected from several papers.
UniProt Q6XUX3, sequence (whole entry, looked up): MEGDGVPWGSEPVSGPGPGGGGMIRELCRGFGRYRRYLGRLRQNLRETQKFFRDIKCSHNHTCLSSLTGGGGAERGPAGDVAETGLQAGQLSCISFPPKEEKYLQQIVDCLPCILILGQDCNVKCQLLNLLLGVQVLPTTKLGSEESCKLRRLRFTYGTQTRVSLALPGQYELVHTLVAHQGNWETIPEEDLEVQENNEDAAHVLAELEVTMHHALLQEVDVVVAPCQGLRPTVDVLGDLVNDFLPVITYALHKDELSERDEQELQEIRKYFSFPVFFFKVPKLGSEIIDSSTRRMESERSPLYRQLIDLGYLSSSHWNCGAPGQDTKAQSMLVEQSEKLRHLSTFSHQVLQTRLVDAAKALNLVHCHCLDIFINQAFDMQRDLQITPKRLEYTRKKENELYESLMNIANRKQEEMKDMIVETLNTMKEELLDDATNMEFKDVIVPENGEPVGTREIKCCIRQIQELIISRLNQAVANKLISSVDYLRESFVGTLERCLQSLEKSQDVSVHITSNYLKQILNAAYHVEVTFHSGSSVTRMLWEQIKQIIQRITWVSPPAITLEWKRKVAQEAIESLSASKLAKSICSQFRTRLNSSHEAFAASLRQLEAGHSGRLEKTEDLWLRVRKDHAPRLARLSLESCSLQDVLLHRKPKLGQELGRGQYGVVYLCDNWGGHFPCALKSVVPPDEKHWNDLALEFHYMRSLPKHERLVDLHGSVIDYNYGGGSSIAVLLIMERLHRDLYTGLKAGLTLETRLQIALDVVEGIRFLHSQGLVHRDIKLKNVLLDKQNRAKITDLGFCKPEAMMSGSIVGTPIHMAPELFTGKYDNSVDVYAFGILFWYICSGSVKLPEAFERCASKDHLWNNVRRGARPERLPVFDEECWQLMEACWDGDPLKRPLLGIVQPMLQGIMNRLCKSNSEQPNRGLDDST
UniProt Q9HAZ1, sequence (whole entry, looked up): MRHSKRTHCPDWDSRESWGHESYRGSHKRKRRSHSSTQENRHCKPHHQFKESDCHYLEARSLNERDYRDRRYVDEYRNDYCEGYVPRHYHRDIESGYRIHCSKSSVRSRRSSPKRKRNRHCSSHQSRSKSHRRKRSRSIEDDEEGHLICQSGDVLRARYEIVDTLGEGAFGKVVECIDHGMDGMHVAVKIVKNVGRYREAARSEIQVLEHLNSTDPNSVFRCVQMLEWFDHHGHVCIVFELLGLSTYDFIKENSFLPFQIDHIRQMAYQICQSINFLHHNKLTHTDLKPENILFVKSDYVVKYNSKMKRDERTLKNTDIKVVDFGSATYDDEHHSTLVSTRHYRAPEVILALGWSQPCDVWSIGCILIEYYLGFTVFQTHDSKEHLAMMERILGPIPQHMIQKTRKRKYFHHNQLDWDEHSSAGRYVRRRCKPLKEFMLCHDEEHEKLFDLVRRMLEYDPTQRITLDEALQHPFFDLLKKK
UniProt Q05655, sequence (whole entry, looked up): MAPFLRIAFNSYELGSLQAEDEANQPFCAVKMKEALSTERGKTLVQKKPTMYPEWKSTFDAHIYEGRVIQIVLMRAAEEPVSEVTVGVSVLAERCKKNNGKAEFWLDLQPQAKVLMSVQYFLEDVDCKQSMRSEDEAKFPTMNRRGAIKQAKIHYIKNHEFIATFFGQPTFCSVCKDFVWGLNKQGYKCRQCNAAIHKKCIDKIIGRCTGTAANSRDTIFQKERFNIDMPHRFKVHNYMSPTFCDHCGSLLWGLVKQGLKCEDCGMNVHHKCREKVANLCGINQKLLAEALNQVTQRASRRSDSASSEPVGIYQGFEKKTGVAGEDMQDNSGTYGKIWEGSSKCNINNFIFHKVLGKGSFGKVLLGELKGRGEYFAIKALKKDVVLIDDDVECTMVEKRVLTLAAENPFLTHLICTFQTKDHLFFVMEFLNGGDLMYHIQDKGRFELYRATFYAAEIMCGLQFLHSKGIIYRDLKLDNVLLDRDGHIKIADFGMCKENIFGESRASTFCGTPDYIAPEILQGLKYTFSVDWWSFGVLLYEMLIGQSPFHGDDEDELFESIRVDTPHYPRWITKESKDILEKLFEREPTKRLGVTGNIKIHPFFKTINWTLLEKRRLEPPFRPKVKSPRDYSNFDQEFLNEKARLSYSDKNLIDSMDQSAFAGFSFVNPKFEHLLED
UniProt Q8NEV4, sequence (whole entry, looked up): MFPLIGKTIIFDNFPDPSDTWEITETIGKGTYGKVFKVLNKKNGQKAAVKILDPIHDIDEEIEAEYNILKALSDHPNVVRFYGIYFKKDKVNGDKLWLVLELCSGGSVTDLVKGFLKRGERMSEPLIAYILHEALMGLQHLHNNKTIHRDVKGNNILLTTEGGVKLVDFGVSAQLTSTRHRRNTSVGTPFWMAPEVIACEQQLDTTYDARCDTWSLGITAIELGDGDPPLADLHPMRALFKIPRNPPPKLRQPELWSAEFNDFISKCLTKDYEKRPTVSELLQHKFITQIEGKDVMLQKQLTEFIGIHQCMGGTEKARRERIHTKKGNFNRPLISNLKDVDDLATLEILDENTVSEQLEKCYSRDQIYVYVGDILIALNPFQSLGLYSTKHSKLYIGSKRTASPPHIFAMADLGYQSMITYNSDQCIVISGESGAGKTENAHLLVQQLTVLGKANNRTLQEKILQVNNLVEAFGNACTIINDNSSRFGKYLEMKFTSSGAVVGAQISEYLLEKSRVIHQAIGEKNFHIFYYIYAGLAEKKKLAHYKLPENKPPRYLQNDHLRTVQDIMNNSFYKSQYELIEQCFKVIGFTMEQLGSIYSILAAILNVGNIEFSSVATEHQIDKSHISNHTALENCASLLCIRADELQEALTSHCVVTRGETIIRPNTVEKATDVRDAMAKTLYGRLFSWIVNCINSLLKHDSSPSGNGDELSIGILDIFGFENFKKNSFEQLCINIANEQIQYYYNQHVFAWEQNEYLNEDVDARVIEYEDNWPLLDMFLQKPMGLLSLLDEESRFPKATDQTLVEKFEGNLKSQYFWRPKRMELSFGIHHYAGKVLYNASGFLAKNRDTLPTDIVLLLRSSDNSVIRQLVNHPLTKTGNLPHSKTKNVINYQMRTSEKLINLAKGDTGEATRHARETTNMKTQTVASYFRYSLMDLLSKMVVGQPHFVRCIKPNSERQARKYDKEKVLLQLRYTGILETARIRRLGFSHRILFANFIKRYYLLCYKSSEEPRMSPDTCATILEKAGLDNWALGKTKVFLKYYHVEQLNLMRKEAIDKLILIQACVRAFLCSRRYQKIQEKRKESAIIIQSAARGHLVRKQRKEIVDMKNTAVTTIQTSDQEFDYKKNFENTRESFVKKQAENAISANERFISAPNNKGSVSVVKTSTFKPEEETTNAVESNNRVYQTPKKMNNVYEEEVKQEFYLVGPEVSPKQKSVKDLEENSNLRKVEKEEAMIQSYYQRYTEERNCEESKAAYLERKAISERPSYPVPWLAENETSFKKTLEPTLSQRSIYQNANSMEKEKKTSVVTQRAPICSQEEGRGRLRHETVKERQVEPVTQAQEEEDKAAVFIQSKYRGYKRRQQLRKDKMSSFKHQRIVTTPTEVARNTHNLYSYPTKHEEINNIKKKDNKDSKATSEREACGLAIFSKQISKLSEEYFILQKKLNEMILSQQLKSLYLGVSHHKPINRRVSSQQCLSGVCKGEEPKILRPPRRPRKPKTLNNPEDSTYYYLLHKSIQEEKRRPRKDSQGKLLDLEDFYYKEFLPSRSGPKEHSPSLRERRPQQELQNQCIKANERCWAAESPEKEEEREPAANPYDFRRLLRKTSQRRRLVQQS

C=C(C)[C@]12C[C@@H](C)[C@@]34OC(c5ccccc5)(O[C@@H]1[C@@H]3[C@H](O)[C@](O)(COC(=O)c1ccccc1)[C@@H](O)[C@@]1(O)[C@H]4C[C@H](C)[C@@H]1O)O2 gave an IC50 of 19.1 µM (MT4; cell growth or viability).
With CC(C)C[C@H](NC(=O)[C@@H](NC(=O)/C=C/c1cccc(F)c1)C(C)C)C(=O)N[C@H](C=O)C[C@@H]1CCCNC1=O the CC50 was greater than 100 µM (A549; cell growth or viability, MTT; 24 h).
For Cc1nn(C)cc1-c1nc2c(N3CCN(Cc4ccc(Cl)cc4)CC3)c(Cl)cnc2[nH]1, the remaining binding was 100% (Protein kinase C delta type (PRKCD, Homo sapiens, UniProt Q05655); binding, competition with immobilised ligand; 1 µM).
With CCOC(=O)C1=C(CN2CCC[C@@H]2C(=O)Nc2cccc(B(O)O)c2)NC(c2nccs2)=N[C@@H]1c1ccc(F)cc1Br the CC50 was 42.5 µM (HepDES19; cell growth or viability, MTS; 72 h).
COc1ncccc1-c1cnn2ccc(N3CCN(C(=O)OC(C)C)CC3)nc12 has a remaining binding of 99% (Dual serine/threonine and tyrosine protein kinase (DSTYK, Homo sapiens, UniProt Q6XUX3); binding, competition with immobilised ligand; 1 µM).
With CCOC(=O)C1=C(CN2CCC(C(=O)Nc3ccc(B4OC(C)(C)C(C)(C)O4)cc3)C2)NC(c2nccs2)=NC1c1ccc(F)cc1Br (stereo not drawn) the CC50 was 26.2 µM (HepDES19; cell growth or viability, MTS; 72 h).
CCCCC1CNC2CCc3ccc(OC)cc3C12.Cl (racemic) gave a Papp A→B of 29.2 ×10⁻⁶ cm/s (MDCK-MDR1; Caco-2).
CC(C)C[C@H](NC(=O)[C@@H](NC(=O)c1ccc(C(F)(F)F)cc1)C(C)C)C(=O)N[C@H](C=O)C[C@@H]1CCCNC1=O has a CC50 of greater than 100 µM (A549; cell growth or viability, MTT; 24 h).
For CN[C@@H]1C[C@H]2O[C@@](C)([C@@H]1OC)n1c3ccccc3c3c4c(c5c6ccccc6n2c5c31)C(=O)NC4, the viability was 55.7% (NCI-H1975; cell growth or viability, MTT; 1.6 µg).
For CC(C)[C@H](NC(=O)/C=C/c1ccccc1)C(=O)N[C@H](C=O)C[C@@H]1CCCNC1=O, the CC50 was greater than 100 µM (A549; cell growth or viability, MTT; 24 h).
For [2H]c1c([2H])c([C@]2([2H])CCCN2C(=O)C(C)(C)Oc2ccc3cn[nH]c3c2)c([2H])c([2H])c1C([2H])([2H])[2H], the remaining binding was 66% (Dual specificity protein kinase CLK4 (CLK4, Homo sapiens, UniProt Q9HAZ1); binding, competition with immobilised ligand; 1 µM).
The Papp B→A of OC(c1ccc(F)cc1)C(F)(F)CCN1CCC(O)(c2ccc(Cl)cc2)CC1 (racemic) is reported as 7.84 ×10⁻⁶ cm/s (MDR1; MDCK-MDR1; 2 h).
CCOC(=O)C1=C(CN2CCC[C@H]2C(=O)Nc2ccc(B(O)O)cc2)NC(c2nccs2)=N[C@@H]1c1ccc(F)cc1Br has a CC50 of 35.6 µM (HepDES19; cell growth or viability, MTS; 72 h).
With Nc1ncc(-c2nc(N3CCOCC3)nc(N3CCOCC3)n2)c(C(F)F)n1 the remaining binding was 92% (Myosin-IIIa (MYO3A, Homo sapiens, UniProt Q8NEV4); binding, competition with immobilised ligand; 10 µM).
For N.N.[Cl][Pt][Cl], the IC50 was 0.3 µM (SU-DHL-1; cell growth or viability, ATP luminescence; 72 h).
